# Measurements collected from several papers.
# Lines come from different studies, so protocols differ. Several values in a cell are separate wells, animals, samples, runs or records. Numbers after ± are the reported error.
# MAPK8: Mitogen-activated protein kinase 8 (MAPK8, Homo sapiens, UniProt P45983)
# Sodium- and chloride-dependent glycine transporter 2: Sodium- and chloride-dependent glycine transporter 2 (Homo sapiens, UniProt Q9Y345)
# TARDBP aggregated: TAR DNA-binding protein 43, aggregated (TARDBP, Homo sapiens, UniProt Q13148)
# GAP50: Glideosome-associated protein 50 (GAP50, Plasmodium falciparum, UniProt Q8I2X3)
# Gria1/Gria2: Glutamate receptor AMPA 1/2 (Gria1/Gria2, Rattus norvegicus, UniProt P19490+P19491)
# CA12: Carbonic anhydrase 12 (CA12, Homo sapiens, UniProt O43570)
Compound,target,assay,system,setting,scale,endpoint,result
CN(Cc1cc(C2CC2)on1)C(=O)c1cccc(-c2ccc3c(c2)CCO3)c1,"Acetyl-CoA synthetase (Cryptococcus neoformans, UniProt J9VFT1)","enzyme activity, inhibitor, coupled pyrophosphate",,3.13 µM,higher is more activity,reaction rate,0.00191 a.u.
C#CC[C@H](NC(=O)c1ccc(C(=O)c2ccccc2)cc1)C(=O)NCCCCCC(=O)N[C@@H](CCCCNC(=O)CSCCNC(=O)CCNC(=O)[C@H](O)C(C)(C)COP(=O)(O)OP(=O)(O)OC[C@H]1O[C@@H](n2cnc3c(N)ncnc32)[C@H](O)[C@@H]1OP(=O)(O)O)C(N)=O,"Vimentin (VIM, Homo sapiens, UniProt P08670)",affinity enrichment LC-MS/MS,"HEK293 cell extract, PCAF transfected",,relative to: 1 over empty vector,enrichment ratio,2.7
O=C(NC[C@@H](Cc1ccc(F)cc1)N1CCC(O)(C(F)(F)F)CC1)C1(c2ccc(Cl)cc2)CCCC1,"Transient receptor potential cation channel subfamily A member 1 (TRPA1, Homo sapiens, UniProt O75762, V875A)","calcium influx, agonist",,,relative to: V875A mutant over wild type,EC50 fold change,2.1
CC(C)(C(=O)N1CCC(Nc2nc3c(c(=O)[nH]2)CCCC3)CC1)c1ccc(Cl)cc1,"MRGPRD (Homo sapiens, UniProt Q8TDS7)","beta-arrestin recruitment, agonist, PRESTO-Tango",,,,Hill slope,3.54
CC[N+]1=C2SCCN2C[C@@H]1c1ccccc1,"acetylcholine-gated chloride channel (Haemonchus contortus, UniProt A0A219KWM7)","ion current, agonist, two-electrode voltage clamp","Haemonchus contortus, Xenopus oocytes",together with: acetylcholine 500 µM,relative to: acetylcholine response,Emax,28%
C#CCOC(=O)[C@@]1(C)C=C(C(=O)OC(C)(C)C)C(=O)CC1,MAPK8,"enzyme activity, D-SENSOR",,"400 µM, single replicate",,normalized kinase activity,0.132 and 0.157 and 0.173
O=C(NC1CCN(Cc2ccccc2)CC1)c1ccccn1,Sodium- and chloride-dependent glycine transporter 2,MS binding competition,,10 µM,,remaining specific binding,93.5 ± 1.8%
Cc1cc(-c2ccccc2)cc(C(=O)NNS(=O)(=O)c2ccccc2)c1F,"Histone acetyltransferase KAT5 (KAT5, Homo sapiens, UniProt Q92993)",SPR,,0.63 µM,higher = more binding,SPR binding response,0.111 RU
O=C1c2sc(-c3ccc(N4CCC(F)C4)nc3F)nc2CCN1c1cccnc1 (stereo not drawn),TARDBP aggregated,radioligand binding,"human, FTLD-TDP type B sarkosyl-insoluble extract",26.56 nM,,specific binding,1.37 nM and 1.68 nM
Cc1nc2ccc(F)cc2c2c1C1(C)CC2c2cc(F)ccc2N1 (stereo not drawn),GAP50,"binding, surface plasmon resonance",,1:1 binding model,,koff,0.00977 s⁻¹
O=C(O)Cc1cc2c(cc1C(=O)c1ccc(Cl)cc1Cl)OCO2,Gria1/Gria2,"glutamate-evoked current, whole-cell patch clamp",HEK-293T,concentration not given,relative to: glutamate alone,current amplitude ratio,9.22 ± 0.8
C[C@@H](Nc1nc(N[C@H](C)C(F)(F)F)nc(-c2cccc(Cl)n2)n1)C(F)(F)F,"Isocitrate dehydrogenase [NADP] cytoplasmic (IDH1, Homo sapiens, UniProt O75874, R132H)","enzyme activity, diaphorase-resazurin coupled",,"16 h preincubation, R132H homodimer",,maximal inhibition,76.4%
CCCCCC(O)/C=C/C=O (stereo not drawn),"Proteasome subunit beta type-8 (PSMB8, Homo sapiens, UniProt P28062)",competitive isoTOP-ABPP,"proteome, soluble, MDA-MB-231","100 µM, 60 min, together with: iodoacetamide probe","relative to: DMSO over compound-treated, higher = stronger cysteine blockade",isoTOP-ABPP competition ratio,1.2
COc1cc2ncnc(Nc3ccc(Oc4ccccc4C)cc3)c2cc1OC,"SMUG1 (Homo sapiens, UniProt Q53HV7)","enzyme activity, activator, fluorescence",,20 µM,relative to: control,activity,500 ± 100%
CCCCCCCCCCCCC/C=C/C=O,"Protein deacetylase HDAC6 (HDAC6, Homo sapiens, UniProt Q9UBN7)",competitive isoTOP-ABPP,Ramos soluble proteome,"100 µM, together with: iodoacetamide probe","relative to: DMSO over compound-treated, higher = stronger cysteine blockade",isoTOP-ABPP competition ratio,1.1
CC(=O)N[C@@H](CC(=O)O)C(=O)N[C@H](C(=O)N[C@H](C(=O)N1CCC[C@H]1C(=O)N[C@H](C(=O)N[C@H](C(=O)N[C@@H](C)C(=O)NCC(=O)N[C@@H](CCC(N)=O)C(=O)N[C@@H](Cc1ccccc1)C(=O)N[C@@H](CCC(=O)O)C(=O)N[C@@H](CC(=O)O)C(=O)N[C@@H](C)C(=O)N[C@@H](CC(=O)O)C(=O)N[C@H](C(=O)N[C@@H](CC(=O)O)C(=O)N[C@@H](Cc1c[nH]cn1)C(=O)O)C(C)C)C(C)C)[C@@H](C)O)[C@@H](C)O)[C@@H](C)O,"PRMT5/MEP50 complex (Homo sapiens, UniProt O14744+Q9BQA1)",SPR,immobilized PRMT5:MEP50 complex,"pH 7.4, 1% DMSO",,KD,2500 nM
COCCOc1cc2ncnc(Nc3cccc(-c4cn(Cc5ccc(S(N)(=O)=O)cc5)nn4)c3)c2cc1OCCOC,CA12,stopped-flow CO2 hydration,,,relative to: Ki hCA VI over Ki hCA XII,selectivity ratio,8.55
Cc1c(Cl)c(=O)oc2cc(OCCCCCCSC#N)ccc12,CA12,stopped-flow CO2 hydration,,,relative to: Ki CA II over Ki CA XII,selectivity ratio,> 2180
"CCOC(=O)c1ccc2c(c1)C1CC(C)(N2)c2c(C)nc3ccc(C(=O)OCC)cc3c21 (single isomer, unassigned)",GAP50,"binding, surface plasmon resonance",,1:1 binding model,,koff,0.548 s⁻¹
COC(=O)Cc1cc2c(cc1C(=O)c1ccc(Cl)cc1Cl)OCO2,Gria1/Gria2,"glutamate-evoked current, whole-cell patch clamp",HEK-293T,"concentration not given, weighted tau, 1 ms pulse, together with: glutamate",,deactivation time constant,3.5 ± 0.2 ms
N=C(N)NCCS(=O)(=O)O,"Sodium- and chloride-dependent taurine transporter (SLC6A6, Homo sapiens, UniProt P31641, Y138A)","binding, microscale thermophoresis",,"3.91 µM, room temperature, together with: 50 nM labelled protein",higher = more binding,normalised MST signal,0.0129
O=C(O)Cc1cc2c(cc1C(=O)c1ccccc1I)OCO2,Gria1/Gria2,whole-cell patch clamp,HEK-293T,"concentration not given, together with: glutamate",,deactivation time constant,3.2 ± 0.3 ms
O=C1c2sc(-c3ccc(N4CCC(CO)CC4)nc3F)nc2CCN1c1cccnc1,TARDBP aggregated,radioligand binding,"human, FTLD-TDP type B sarkosyl-insoluble extract",102.04 nM,,specific binding,1.5 nM and 2.23 nM
O=C(N1CCCC1)n1cc(-c2ccc(-c3ccccc3)cc2)nn1,"Acyl-coenzyme A thioesterase 2, mitochondrial (Acot2, Mus musculus, UniProt Q9QYR9)","probe labelling, inhibitor, competitive ABPP-SILAC, refers to: Acot2",mouse T cells,"concentration not given, 4 h, protein level","relative to: treated over DMSO cells, lower = stronger inhibition",SILAC activity ratio,1.17
O=C(NO)c1ccc(Cn2c3c(c4cc(Br)ccc42)SC(c2ccccc2)C3)s1 (racemic),"Histone deacetylase 8 (Schistosoma mansoni, UniProt A5H660)",X-ray crystallography,,"ligand-Lys20 side chain, chain B, BR1-CG",,interatomic distance,3.59 Å
C=CC(=O)N1CCCC(n2c(=O)c3ncccc3n(Cc3ccc(Oc4ccccc4)cc3)c2=O)C1 (stereo not drawn),"Peptidyl-prolyl cis-trans isomerase F, mitochondrial (PPIF, Homo sapiens, UniProt P30405)",thermal proteome profiling,cell proteome,treated,,melting temperature,52.7 °C and 47.3 °C
COC(=O)Cc1cc2c(cc1C(=O)c1cccc(I)c1)OCO2,Gria1/Gria2,"glutamate-evoked current, whole-cell patch clamp",HEK-293T,"concentration not given, pH 7.4, holding potential -60 mV, together with: 10 mM glutamate",,current amplitude,320 ± 38 pA
CC(=O)c1cnc(NS(=O)(=O)c2ccc(C(F)(F)F)c(Cl)c2)nc1,"17-beta-hydroxysteroid dehydrogenase 13 (Homo sapiens, UniProt Q7Z5P4)",enzyme activity,"human hepatocytes, HSD17B13 siRNA, culture medium",120 h,relative to: scramble siRNA control,oxidized product ratio,0.247 and 0.257 and 0.271 and 0.239
COc1ccc(C2(O)CCN(CCCCCC3=C4C(C)=CC(C)=[N+]4[B-](F)(F)n4c(C)cc(C)c43)CC2)cc1,Sodium- and chloride-dependent glycine transporter 2,MS binding competition,,10 µM,,remaining specific binding,10.4 ± 0.4%
CC(C)[C@@H]1NC(=O)[C@H](Cc2ccccc2)NC(=O)CSC[C@@H](C(N)=O)NC(=O)[C@H](CCC(=O)O)NC(=O)[C@H](CO)NC(=O)[C@H](Cc2c[nH]c3cccc(Cl)c23)NC(=O)[C@H](C2CCCCC2)NC(=O)[C@H](C(C)C)NC(=O)[C@H](Cc2ccc(O)cc2)NC(=O)[C@H](CC(=O)O)NC(=O)[C@H](Cc2c[nH]c3ccccc23)NC(=O)[C@H](Cc2ccc(N)nc2)NC(=O)[C@H](Cc2c[nH]c3ccc(Cl)cc23)NC(=O)[C@H](CCC(=O)O)NC1=O,"Interleukin-1 receptor-like 2 (IL1RL2, Homo sapiens, UniProt Q9HB29)","reporter gene (SEAP), inhibitor, HEK-Blue IL-36R reporter",HEK-Blue IL-36R cells,"0.14 µM, 6 h, together with: IL-36β 0.03 ng/mL",,remaining activity,52.5%
CCn1cc(-c2cccc(C(F)(F)F)c2)c2sc(C(=N)NC3CCS(=O)(=O)CC3)cc2c1=O,"Bromodomain-containing protein 9 (BRD9, Homo sapiens, UniProt Q9H8M2)","thermal stability, DSF",,,,ΔTm,14.4 °C
O=C(O)C[C@H]1C[C@H](O)CN1 (relative stereo),Sodium- and chloride-dependent glycine transporter 2,MS binding competition,,10 µM,,remaining specific binding,104 ± 6.5%
COC(=O)Cc1cc2c(cc1C(=O)c1cccc(Br)c1)OCO2,Gria1/Gria2,"glutamate-evoked current, whole-cell patch clamp",HEK-293T,"concentration not given, weighted tau, 1 ms pulse, together with: glutamate",,deactivation time constant,2.9 ± 0.2 ms
COC(=O)[C@@]1(C)C=C(C(=O)Nc2cccc(C(=O)Nc3ccc(Nc4nccc(-c5cccnc5)n4)c(C)c3)c2)C(=O)CC1,MAPK8,"enzyme activity, inhibitor",,"0.1829 µM, 0 h, unit not given, together with: GSH 10 mM pre-incubation",relative to: vehicle,remaining activity,0.178
CC(C)Oc1cc(Cl)ccc1CNc1cc(-c2ccccc2)nc2ncnn12,"G-protein coupled receptor 3 (GPR3, Homo sapiens, UniProt P46089, V196W)","cAMP level, cAMP GloSensor",,10 pM,higher = more cAMP,cAMP luminescence,50600 a.u. and 31500 a.u. and 46100 a.u. and 30900 a.u.
CC(=O)NCCCC[C@H](NC(=O)[C@H](CCCNC(=N)N)NC(=O)[C@H](C)NC(=O)[C@H](C)NC(=O)[C@H](CCCCN)NC(=O)[C@@H](N)[C@@H](C)O)C(=O)N[C@@H](CO)C(=O)N[C@@H](C)C(=O)N1CCC[C@H]1C(=O)N[C@@H](C)C(=O)N[C@H](C(=O)O)[C@@H](C)O,"YEATS domain-containing protein 4 (Homo sapiens, UniProt O95619, E109A)",differential scanning fluorimetry,,together with: 50 µM peptide,relative to: buffer-only reference,ΔTm,0.38 ± 0.05 °C
CC[C@H](C)[C@@H]1NC(=O)[C@H](Cc2ccccc2)NC(=O)[C@H](CCC(=O)O)NC(=O)[C@H](CCCNC(=N)N)NC(=O)CNC(=O)[C@@H](NC(=O)[C@H](CC(C)C)NC(=O)[C@H](CCCNC(=N)N)NC(=O)[C@@H](NC(=O)CNC(=O)[C@H](Cc2ccc(O)cc2)NC(=O)[C@@H]2CCCN2C(=O)[C@H](C)NC(=O)[C@H](C)NC(=O)[C@@H](N)CCCNC(=N)N)C(C)C)CSSC[C@@H]2NC(=O)[C@@H](NC(=O)[C@H](CO)NC(=O)[C@H](CO)NC(=O)[C@H](CO)NC(=O)[C@H](CC(C)C)NC(=O)CNC(=O)[C@H](C)NC(=O)[C@H](CC(C)C)NC(=O)[C@@H](NC(=O)[C@@H](N)CC(=O)O)C(C)C)CSSC[C@H](NC(=O)CNC(=O)[C@H](Cc3c[nH]c4ccccc34)NC(=O)[C@H](CCCCN)NC2=O)C(=O)N[C@@H](CO)C(=O)N[C@@H](CCCCN)C(=O)N[C@@H](CO)C(=O)N[C@@H](CCC(=O)O)C(=O)N[C@@H]([C@@H](C)CC)C(=O)N[C@@H](CO)C(=O)N[C@@H](CO)C(=O)N[C@@H](CC(C)C)C(=O)N[C@H](C(=O)O)CSSC[C@@H](C(=O)NCC(=O)NCC(=O)N[C@@H](CO)C(=O)N[C@@H](CCCNC(=N)N)C(=O)N[C@@H](Cc2c[nH]c3ccccc23)C(=O)O)NC(=O)[C@H]([C@@H](C)O)NC(=O)[C@H](Cc2ccccc2)NC(=O)[C@H]([C@@H](C)CC)NC(=O)[C@H](C(C)C)NC(=O)[C@H](C)NC(=O)[C@H](CCCNC(=N)N)NC1=O,"Relaxin-3 receptor 2 (RXFP4, Homo sapiens, UniProt Q8TDU9, Q205A)",,HEK-293T,,relative to: wild type,Emax,92.3 ± 6.49%
"CC(=O)C12NC(C)(C)CC1(C)C(=O)C1=C2c2c(c3c4n2C(C)(C)CC2=C4C4(CC(C)(C)NC(C)(C4)C2=O)CC3(C)C)C(=O)C(C)(C)N1 (single isomer, unassigned; (+))","Neuronal acetylcholine receptor subunit alpha-7 (CHRNA7, Homo sapiens, UniProt P36544)","ion current, agonist, whole-cell patch clamp",HEK293T,10 µM,,activation,0.36%
OC[C@H]1c2[nH]cnc2[C@H](O)[C@@H](O)[C@@H]1O,"bglA (Thermotoga maritima, UniProt Q08638)",ITC,,"concentration not given, pH 5.8, 25 °C",,binding stoichiometry,0.99 ± 0.04
